Measurements from different studies.
Lines come from different studies, so protocols differ. Numbers after ± are the reported error.

SMILES	assay	test system	conditions	half-life
Cc1ccc2nc(C)c(C(=O)NCc3ccc(C(F)(F)F)cc3)n2c1	–	dog liver microsomes	–	18 min
Cc1ccc2nc(C(F)(F)F)c(C(=O)NCc3cccc(Cl)c3)n2c1	–	mouse liver microsomes	–	< 3 min
C#Cc1c(F)ccc2cc(O)cc(-c3ncc4c(N5CC6CCC(C5)N6C(=O)OCc5ccc(OC(=O)CCCC)cc5)nc(OC[C@@]56CCCN5C[C@H](F)C6)nc4c3F)c12	–	mouse whole blood	1 µM	0.65 min
CC[C@H](C)[C@@H]1NC(=O)[C@H](Cc2ccc(O)cc2)NC(=O)[C@@H](N)CSCSC[C@@H](C(=O)N2CCC[C@H]2C(=O)N[C@@H](CC(C)C)C(=O)NCC(N)=O)NC(=O)[C@H](CC(N)=O)NC(=O)[C@H](CCC(N)=O)NC1=O	–	phosphate buffer	0.1 mg/mL, pH 4.5, 40 °C	192000 ± 10100 min
N#Cc1ccc(NC(=O)c2cccnc2)cc1Cl	chemical stability	buffer	5 µM, pH 2.0, 37 °C	21.2 ± 7.3 min
CC(=O)N[C@@H](Cc1ccc(O)cc1)C(=O)N[C@@H](CC(=O)O)C(=O)N[C@@H](C)C(=O)N[C@@H](Cc1ccccc1)C(=O)N[C@@H](Cc1ccc(O)cc1)C(=O)N[C@@H](C)C(=O)N[C@@H](Cc1ccc(O)cc1)C(=O)N[C@H](C(=O)N[C@H](C(=O)N[C@@H](Cc1ccccc1)C(=O)N[C@@H](Cc1c[nH]cn1)C(=O)N[C@H](C(=O)N[C@@H](C)C(=O)N[C@H](C(N)=O)[C@@H](C)O)C(C)C)[C@@H](C)O)C(C)C	LC-MS	human serum	10 µM, 37 °C	< 10 min
CSCC[C@H](NC(=O)[C@H](Cc1ccccc1)NC(=O)CNC(=O)[C@@H](C)NC(=O)[C@@H](N)Cc1ccc(O)cc1)C(=O)N1CCC[C@H]1C(=O)N[C@@H](CC(C)C)C(=O)N[C@@H](Cc1c[nH]c2ccccc12)C(=O)NCc1cc(C(F)(F)F)cc(C(F)(F)F)c1	–	rat plasma	50 µg/mL, 37 °C	288 min
O=C(NC12CC3CC(CC(C3)C1)C2)c1cc2cc(Cl)ccc2[nH]1	–	mouse liver microsomes	–	21.9 min
CC(COC(=O)c1ccccc1)OC(=O)C(N)Cc1ccccc1 (mixture of isomers)	–	Caco-2 cell homogenate	pH 7.4, 37 °C, 500 µg/mL protein	< 5 min
COCn1cc(-c2cc(-c3cnn(C(F)F)c3)cc([C@@H](C)NC(=O)c3cc(OCCN(C)C)ccc3C)c2)cn1	–	mouse liver microsomes	–	136 min
CC(C)C[C@H](NC(=O)[C@H](CCCCN)NC(=O)[C@H](CCCCNC(=O)[C@H](CC(C)C)NC(=O)[C@H](CCCCN)NC(=O)[C@H](CCCCNC(=O)[C@H](CC(C)C)NC(=O)[C@H](CCCCN)NC(=O)[C@H](CCCCNC(=O)[C@H](CC(C)C)NC(=O)[C@@H](N)CCCCN)NC(=O)[C@H](CC(C)C)NC(=O)[C@@H](N)CCCCN)NC(=O)[C@H](CC(C)C)NC(=O)[C@H](CCCCN)NC(=O)[C@H](CCCCNC(=O)[C@H](CC(C)C)NC(=O)[C@@H](N)CCCCN)NC(=O)[C@H](CC(C)C)NC(=O)[C@@H](N)CCCCN)NC(=O)[C@H](CC(C)C)NC(=O)[C@H](CCCCN)NC(=O)[C@H](CCCCNC(=O)[C@H](CC(C)C)NC(=O)[C@H](CCCCN)NC(=O)[C@H](CCCCNC(=O)[C@H](CC(C)C)NC(=O)[C@@H](N)CCCCN)NC(=O)[C@H](CC(C)C)NC(=O)[C@@H](N)CCCCN)NC(=O)[C@H](CC(C)C)NC(=O)[C@H](CCCCN)NC(=O)[C@H](CCCCNC(=O)[C@H](CC(C)C)NC(=O)[C@@H](N)CCCCN)NC(=O)[C@H](CC(C)C)NC(=O)[C@@H](N)CCCCN)C(N)=O	RP-UPLC	human serum 25%	200 µM, 37 °C	~900 min
Cc1ccc(OCCN(C)C)cc1C(=O)N[C@H](C)c1cc(-c2cnn(CCN3CCOCC3)c2)cc(-c2ccn(C)n2)c1	–	mouse liver microsomes	–	> 145 min
Cc1cccc(-c2nc(Nc3ccncn3)c3sccc3n2)n1	–	human liver microsomes	–	22 min
CC[C@H](C)[C@@H]1NC(=O)CNC(=O)[C@@H]2CSSC[C@@H]3NC(=O)[C@H](Cc4ccc(O)cc4)NC(=O)[C@@H]4CSSC[C@H](NC(=O)[C@H](CSSC[C@H](NC(=O)[C@H](Cc5c[nH]cn5)NC(=O)CNC(=O)[C@H](CCCCN)NC(=O)[C@H](CCCNC(=N)N)NC3=O)C(=O)N[C@@H](CCCCN)C(=O)N[C@@H](CCCNC(=N)N)C(=O)NCC(=O)N[C@@H](CCC(=O)O)C(=O)N[C@@H](CCCNC(=N)N)C(=O)N[C@@H](C(C)C)C(=O)N[C@@H](CCCNC(=N)N)C(=O)NCC(=O)N[C@@H]([C@@H](C)O)C(=O)N2)NC(=O)[C@H](Cc2ccc(O)cc2)NC(=O)[C@H](CC(C)C)NC(=O)[C@H](Cc2ccccc2)NC(=O)[C@H](CCCNC(=N)N)NC1=O)C(=O)N1CCC[C@H]1C(=O)N[C@@H](CCCNC(=N)N)C(=O)N[C@@H](CCCNC(=N)N)C(=O)NCC(=O)N[C@@H](CC(C)C)C(=O)N[C@@H](CC(C)C)C(=O)N4	–	100% human serum	27 µM, 37 °C, heat-inactivated serum	> 2880 min
CN[C@@H]1[C@H](O)[C@H](NC)[C@H]2O[C@]3(O)[C@H](O[C@@H]2[C@H]1O)O[C@H](C)C[C@@]3(O)CNCc1ccc(Cl)cc1	–	rat liver microsomes	–	1390 min
COc1ccc(-c2cnc3[nH]cc(C#Cc4cccnc4)c3c2)cc1OC	–	plasma	–	> 240 min
CC(C)[C@H](N)C(=O)OCOC(=O)c1ccccc1.O=C(O)C(F)(F)F	–	isotonic buffer	pH 6.0, 37 °C	3.5 min
CSCC[C@H](NC(=O)CNC(=O)CNC(=O)[C@H](CO)NC(=O)[C@H](CC(C)C)NC(=O)[C@@H]1CCCN1C(=O)[C@H](CO)NC(=O)[C@H](CC(N)=O)NC(=O)[C@H](CC(C)C)NC(=O)[C@H](C)NC(=O)[C@@H](NC(=O)[C@H](CC(C)C)NC(=O)[C@H](Cc1c[nH]cn1)NC(=O)[C@H](CC(C)C)NC(=O)[C@@H](NC(=O)[C@@H]1CCCN1C(=O)[C@H](CCC(N)=O)NC(=O)[C@H](Cc1ccccc1)NC(=O)[C@H](CC(=O)O)NC(=O)[C@H](CCCNC(=N)N)NC(=O)[C@H](Cc1c[nH]cn1)NC(=O)[C@H](CO)NC(=O)[C@H](Cc1c[nH]cn1)NC(=O)[C@H](CCSC)NC(=O)[C@H](CC(=O)O)NC(=O)CNC(=O)[C@H](CCCNC(=N)N)NC(=O)[C@H](CC(=O)O)NC(=O)CNC(=O)[C@@H](N)CCCNC(=N)N)C(C)C)C(C)C)C(N)=O	metabolic stability	cynomolgus monkey liver homogenate	20 µg/mL, 37 °C	3.23 ± 0.1 min
CCC(CC)OC1C=C(C(=O)OC(C)OC(=O)C(N)CC(C)C)CC(NC(=N)N)C1NC(C)=O (mixture of isomers)	–	Caco-2 cell homogenate	pH 7.4, 37 °C, 500 µg/mL protein	23.2 ± 6.8 min
CC[C@H](C)[C@@H]1NC(=O)[C@H](Cc2ccc(O)cc2)NC(=O)[C@@H](N)Cc2cn(nn2)CCCC[C@@H](C(=O)N2CCC[C@H]2C(=O)N[C@@H](CC(C)C)C(=O)NCC(N)=O)NC(=O)[C@H](CC(N)=O)NC(=O)[C@H](CCC(N)=O)NC1=O	RP-HPLC-MS	human pregnancy serum	37 °C	> 2880 min
N=C(N)NCCC[C@@H]1NC(=O)[C@H](CCCNC(=N)N)NC(=O)[C@H](CCCNC(=N)N)NC(=O)[C@H](CCCNC(=N)N)NC(=O)[C@H](Cc2c[nH]c3ccccc23)NC(=O)[C@H](CCCNC(=N)N)NC(=O)[C@H](CCCNC(=N)N)NC(=O)[C@@H](N)CCn2cc(nn2)C[C@@H](C(N)=O)NC1=O	trypsin degradation, HPLC	PBS	pH 7.4, 37 °C, together with: trypsin 0.1 ng/mL	18.4 min
CC[C@H](C)[C@@H]1NC(=O)[C@H](CC(N)=O)NC(=O)[C@@H]2CCCN2C(=O)[C@@H](NC(=O)[C@H](CC(N)=O)NC(=O)[C@@H](N)CCC(N)=O)COC(=O)[C@H](CCSC)NC(=O)[C@H](Cc2c[nH]c3ccccc23)NC(=O)[C@H](CCC(N)=O)NC(=O)CNC(=O)[C@H](Cc2ccccc2)NC1=O	–	human plasma diluted with PBS	0.28 mM, pH 7.2, 37 °C	< 30 min
Cc1cc(O)cc(C)c1C[C@H](N)C(=O)N[C@H](C)C(=O)NCC(=O)N[C@@H](Cc1ccc(F)cc1)C(=O)N1CCC[C@H]1C(=O)N[C@@H](CC(C)C)C(=O)N[C@@H](Cc1c[nH]c2ccccc12)C(=O)NCc1cc(C(F)(F)F)cc(C(F)(F)F)c1	–	rat plasma	50 µg/mL, 37 °C	~360 min
CC(C)(CN)CNC(=O)O[C@H]1CCCC2(C1)OOC1(O2)C2CC3CC(C2)CC1C3 (stereo partly shown)	–	human liver microsomes	–	64.8 min
Nc1nc2c(ncn2COCCOC(=O)[C@@H](N)CO)c(=O)[nH]1	substrate	rabbit cornea homogenate	0.133 mM, pH 7.4, 34 °C	552 ± 36 min
CC(COC(=O)c1ccccc1)OC(=O)C(N)C(C)C (mixture of isomers)	–	90% rat intestinal perfusate	100 µM	> 120 min
CNc1nc(SC)nc2ccccc12	–	mouse liver microsomes	–	< 3 min
CC(=O)N[C@H](Cc1ccc(O)cc1)C(=O)N[C@@H](CCCNC(=N)N)C(=O)N[C@@H](Cc1ccccc1)C(=O)N[C@H]1CCC[C@@H]1C(=O)N[C@@H](CCCNC(=N)N)C(=O)N[C@@H](CC(N)=O)C(=O)N[C@H]1CCC[C@@H]1C(=O)N[C@H](C(=O)N[C@@H](Cc1ccccc1)C(=O)N[C@H]1CCC[C@@H]1C(=O)N[C@@H](Cc1ccccc1)C(=O)N[C@@H](Cc1ccc(O)cc1)C(=O)N[C@H]1CCC[C@@H]1C(=O)N[C@H](C(=O)N[C@@H](CC(=O)O)C(N)=O)[C@@H](C)O)C(C)C	LC-MS	human serum	10 µM, 37 °C	660 min

A few entries again:
SMILES	assay	test system	conditions	half-life
CC[C@H](C)[C@@H]1NC(=O)CNC(=O)[C@@H]2CSSC[C@@H]3NC(=O)[C@H](Cc4ccc(O)cc4)NC(=O)[C@@H]4CSSC[C@H](NC(=O)[C@H](CSSC[C@H](NC(=O)[C@H](Cc5c[nH]cn5)NC(=O)CNC(=O)[C@H](CCCCN)NC(=O)[C@H](CCCNC(=N)N)NC3=O)C(=O)N[C@@H](CCCCN)C(=O)N[C@@H](CCCNC(=N)N)C(=O)NCC(=O)N[C@@H](CCC(=O)O)C(=O)N[C@@H](CCCNC(=N)N)C(=O)N[C@@H](C(C)C)C(=O)N[C@@H](CCCNC(=N)N)C(=O)NCC(=O)N[C@@H]([C@@H](C)O)C(=O)N2)NC(=O)[C@H](Cc2ccc(O)cc2)NC(=O)[C@H](CC(C)C)NC(=O)[C@H](Cc2ccccc2)NC(=O)[C@H](CCCNC(=N)N)NC1=O)C(=O)N1CCC[C@H]1C(=O)N[C@@H](CCCNC(=N)N)C(=O)N[C@@H](CCCNC(=N)N)C(=O)NCC(=O)N[C@@H](CC(C)C)C(=O)N[C@@H](CC(C)C)C(=O)N4	–	100% human serum	27 µM, 37 °C, heat-inactivated serum	> 2880 min
CN[C@@H]1[C@H](O)[C@H](NC)[C@H]2O[C@]3(O)[C@H](O[C@@H]2[C@H]1O)O[C@H](C)C[C@@]3(O)CNCc1ccc(Cl)cc1	–	rat liver microsomes	–	1390 min
